Measured values gathered from unrelated publications.
Each numbered part is a random draw from the data of one study; scales do not carry over between parts. Substitutions count along the parent as printed.

Study 1
Target: RNA binding protein fox-1 homolog 2, RRM domain, GST-SBP tag (RBFOX2, Homo sapiens, UniProt O43251-10, residues 100-194)
Method: RNA Bind-n-Seq
Molecule type: RNA
Sample: in vitro
Tested at: 365 nM
Setting: natural RNA segment, single round, ends assumed
Baseline: no-protein control
Reading: higher = stronger binding
Measurement: RBNS enrichment (R)
Construct (chain): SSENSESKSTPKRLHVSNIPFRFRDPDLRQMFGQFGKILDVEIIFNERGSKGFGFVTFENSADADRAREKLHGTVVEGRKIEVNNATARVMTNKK
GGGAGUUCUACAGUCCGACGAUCUCUCCCUGGUUAAGCAGUUUGUACUACAGAACCCCCGAGCUGCUGUGGGUCCUACAGGUGCUUCCAUGCUCUGGUUAGACUGUCCUGUCUGAGGACACAGCCAGUUUCUUUGGAAUUCUCGGGUGCCAA: 0.485
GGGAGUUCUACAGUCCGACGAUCGCCAGGGAACUCUUCUCCUCGCGGGGGACUUGGGAUGGCCAUCAGACCUUCUAGGGUCUGGCUGGGGUCAUCCUAGGUAUGGGUGACCGUCCCUGAGACAUAAGCGAGGUUGGAAUUCUCGGGUGCCAA: 0.217
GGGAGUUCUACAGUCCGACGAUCAAGUAGCCAAAGAAACUCUGUCACUUUGGUAACACCAGAACUUGCCACAUGUAGCUACUACAGCAAGGCUUCUGUGUACUUGCCGGAAACGAAGGGAGGUCCUGCUCACUUGGAAUUCUCGGGUGCCAA: 0.244
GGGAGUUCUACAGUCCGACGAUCAAGUCAGGGCCCACCCCAUCUGAGGCAGAGAAGACUCGAGUCCAGCCCCCAGGAAGCCUGCUCCCCUCUCUGGCCCAUGGUCCUGCUUCAUGCUUUGGGUCAGGAGGCCAUGGAAUUCUCGGGUGCCAA: 0.399
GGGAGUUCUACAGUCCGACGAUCACCCAUACCCUGUGUGAGGGCACAACCAGGCCACGGGACCUUCUAUCCUCUGUAUUUGUCAUUCCUCUCCUAGCCCUCCUGAGGGGUAUCCUCCUAAAGACCUCCAAAGUUGGAAUUCUCGGGUGCCAA: 0.434
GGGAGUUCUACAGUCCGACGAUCUGAAUCUCAUUUGCCAUCUUUAGUUUUCUUAUGGAGGUUUAUACUCUUUAAACAGUUCUGAUGUAAUUUCUCAACAAAAUGUGGCUUUUAGCCUGUCAGUGAUCUAUUGGUGGAAUUCUCGGGUGCCAA: 0.377
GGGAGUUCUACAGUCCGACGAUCAAGAGAGAGUGAGAGUGUGUGUGUAUAUGUGUGUGUGUGUGCAAUCAAACUGUGGUGUAAAUAGAUCCUCAGUGAAUUCUGGUAUUCAGACUCUGUUCCACUAGUGAAUGUGGAAUUCUCGGGUGCCAA: 1.09
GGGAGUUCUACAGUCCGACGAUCUAGCUUGGGAUUUUUUUUUUUUUUAAUGUAGAAAAACCCUGUAGAACCAGUGCUUUGGCCACUUUCAUGCUAGCAGAGUGGACCUUGGUCCUCCCUGCUUAGAAAGCUACUGGAAUUCUCGGGUGCCAA: 0.474
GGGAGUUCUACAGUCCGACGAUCAGCUGUGAAAUAAACUCUCCCCAAGGAUGCCAUCUGAUCUCCCCAUCUGCAGCCAGAAGUCACCCCAAUACAGUACUUCUAAGGAGGGGUCAGGUAAAGCAUGAGAGAGAUGGAAUUCUCGGGUGCCAA: 5.18
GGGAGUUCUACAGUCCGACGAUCGAACCUGACAGAGAAGGGAAGGUUUCUAUAAAAAGAGACACCAGGCUUUGGGGGCCAGGGCUUCAUGAGACAAACUUCUUGCCAGCCAAUCACACAUUCUUCUCAGAAGAUGGAAUUCUCGGGUGCCAA: 0.311
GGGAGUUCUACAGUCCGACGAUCUCAUCUGCAUAGUUGCUUGGAUCAUUGUUACAUCAGUUCAGCGCAUAGUAGCAAUUCUGGUGUGGCCAAGGUGUUGGCUGAAGUUUAUUCUUCAUUGGAUGUUUAAAGCAUGGAAUUCUCGGGUGCCAA: 1.67
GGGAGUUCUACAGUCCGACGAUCCAGGAGAAGAAAUAACUAUCUUUUCAUUUGGGAGAGGCUAAAGAUGUUUUCAGCUACUUGCAAAUCUUCCUGGUCGAAAGUUAGUAGGAUAUGCCUGCUCUUUGGCCUGAUGGAAUUCUCGGGUGCCAA: 0.314

Study 2
Molecule: PhoQ, residues 284 288 289 292 302 303 SLCLSL
Method: Sort-seq
Measured: YFP reporter
Sample: E. coli
Setting: PhoQ-PhoP variant library
With: 10 µM Mg2+
Baseline: high Mg2+ state
Reading: higher = stronger signaling
Measurement: fold induction
PhoP, residues 12 14 15 18 19 NFFVT (Escherichia coli, UniProt P23836): 0.205
PhoP, residues 12 14 15 18 19 TPWTL (Escherichia coli, UniProt P23836): 15.9
PhoP, residues 12 14 15 18 19 VGHWL (Escherichia coli, UniProt P23836): 1.85
PhoP, residues 12 14 15 18 19 LHHYF (Escherichia coli, UniProt P23836): 0.0388

Study 3
Target: CEP164, C-terminal peptide (human)
Method: DHFR complementation, deep sequencing
Sample: yeast
Setting: single substitutions, model-inferred values
Baseline: wild type
Reading: higher = weaker binding
Measurement: binding free energy change
Starting sequence: PDZK1, PDZ domain 2 (human); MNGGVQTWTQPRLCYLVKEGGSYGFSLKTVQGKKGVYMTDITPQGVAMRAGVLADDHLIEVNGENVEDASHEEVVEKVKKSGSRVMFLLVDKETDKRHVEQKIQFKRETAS; partner HNRVKVYRF
L88S: -0.00181 kcal/mol
Y23I: 1.3 kcal/mol
Q10M: 0.178 kcal/mol
Y37P: 1.36 kcal/mol
H71F: -1.52 kcal/mol
V46L: 0.71 kcal/mol
G63E: 0.341 kcal/mol
V99A: -0.182 kcal/mol
G4V: 0.0431 kcal/mol
M48D: -0.24 kcal/mol
V17D: 0.291 kcal/mol
R49C: 0.366 kcal/mol
H71D: -0.38 kcal/mol
L27M: 0.762 kcal/mol
Q104T: -0.111 kcal/mol
A110G: -0.0587 kcal/mol
R84A: 0.0196 kcal/mol
T9L: 0.0902 kcal/mol

Study 4
Target: GDNF-inducible zinc finger protein 1, full length (GZF1, Homo sapiens, UniProt Q9H116, residues 1-711)
Method: protein-binding microarray
Molecule type: hairpin DNA
Sample: in vitro
Tested at: not given
Setting: whole hairpin DNA, median over replicate spots
Baseline: not given
Reading: higher = stronger binding
Measurement: median fluorescence
Construct (chain): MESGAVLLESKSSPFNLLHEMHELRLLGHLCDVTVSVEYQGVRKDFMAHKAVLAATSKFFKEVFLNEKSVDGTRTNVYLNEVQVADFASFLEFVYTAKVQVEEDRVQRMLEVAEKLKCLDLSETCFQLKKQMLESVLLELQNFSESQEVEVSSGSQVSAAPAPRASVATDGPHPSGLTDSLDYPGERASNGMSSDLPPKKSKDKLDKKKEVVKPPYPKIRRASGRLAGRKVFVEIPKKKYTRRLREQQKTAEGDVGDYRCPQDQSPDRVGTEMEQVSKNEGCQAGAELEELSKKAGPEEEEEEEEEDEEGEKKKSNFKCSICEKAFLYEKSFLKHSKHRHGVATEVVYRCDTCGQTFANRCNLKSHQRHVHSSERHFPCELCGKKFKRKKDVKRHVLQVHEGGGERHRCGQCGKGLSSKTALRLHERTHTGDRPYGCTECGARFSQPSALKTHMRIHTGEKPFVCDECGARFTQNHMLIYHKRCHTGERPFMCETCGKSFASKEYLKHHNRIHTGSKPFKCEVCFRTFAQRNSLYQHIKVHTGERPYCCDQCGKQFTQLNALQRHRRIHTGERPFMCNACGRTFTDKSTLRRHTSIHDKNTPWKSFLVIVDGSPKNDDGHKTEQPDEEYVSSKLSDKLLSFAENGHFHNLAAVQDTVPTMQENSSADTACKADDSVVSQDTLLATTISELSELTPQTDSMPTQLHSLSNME
GAGGCCATTACGGCGATGCCTCCTGGCATCGCCGTAATGGCCTCACACTC (5mC at 30): 532 a.u.
GAGGCCATTACGGTAAGGCCTCCTGGCCTTACCGTAATGGCCTCACACTC: 572 a.u.
GAGGCCGTTACGGTAATGCCTCCTGGCATTACCGTAACGGCCTCACACTC (5mC at 38): 748 a.u.
GAGGCCCGTACGGTAATGCCTCCTGGCATTACCGTACGGGCCTCACACTC: 726 a.u.
GAGGCCATTACGGTAACGCCTCCTGGCGTTACCGTAATGGCCTCACACTC (5mC at 17): 667 a.u.
GAGGCCCGTACGGTAATGCCTCCTGGCATTACCGTACGGGCCTCACACTC (5mC at 37): 720 a.u.
GAGGCCATTACGGTCATGCCTCCTGGCATGACCGTAATGGCCTCACACTC: 503 a.u.
GAGGCCATTACGGTAAAGCCTCCTGGCTTTACCGTAATGGCCTCACACTC: 574 a.u.
GAGGCCATTACGGTACTGCCTCCTGGCAGTACCGTAATGGCCTCACACTC: 660 a.u.
GAGGCCATTACGATAATGCCTCCTGGCATTATCGTAATGGCCTCACACTC: 395 a.u.
GAGGCCACTACGGTAATGCCTCCTGGCATTACCGTAGTGGCCTCACACTC: 701 a.u.
GAGGCCCGTACGGTAATGCCTCCTGGCATTACCGTACGGGCCTCACACTC (5mC at 7): 752 a.u.
GAGGCCATTACGGTCATGCCTCCTGGCATGACCGTAATGGCCTCACACTC (5mC at 15): 514 a.u.
GAGGCCACGACGGTAATGCCTCCTGGCATTACCGTCGTGGCCTCACACTC (5mC at 8 36): 725 a.u.

Study 5
Target: ABI1, truncated, D143A, DHFR fusion (Arabidopsis thaliana)
Method: DHFR PCA, deep sequencing
Sample: yeast
Setting: methotrexate growth selection, single substitutions
With: (+)-ABA 2500 µM
Baseline: wild-type fitted maximum
Reading: higher = stronger binding
Measurement: relative binding score
Starting sequence: PYL1, truncated, DHFR fusion (Arabidopsis thaliana); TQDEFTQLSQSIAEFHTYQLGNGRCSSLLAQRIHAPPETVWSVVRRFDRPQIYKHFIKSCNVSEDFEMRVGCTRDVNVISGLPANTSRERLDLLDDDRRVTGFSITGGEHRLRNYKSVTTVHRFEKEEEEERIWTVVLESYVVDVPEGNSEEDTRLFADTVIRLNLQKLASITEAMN; partner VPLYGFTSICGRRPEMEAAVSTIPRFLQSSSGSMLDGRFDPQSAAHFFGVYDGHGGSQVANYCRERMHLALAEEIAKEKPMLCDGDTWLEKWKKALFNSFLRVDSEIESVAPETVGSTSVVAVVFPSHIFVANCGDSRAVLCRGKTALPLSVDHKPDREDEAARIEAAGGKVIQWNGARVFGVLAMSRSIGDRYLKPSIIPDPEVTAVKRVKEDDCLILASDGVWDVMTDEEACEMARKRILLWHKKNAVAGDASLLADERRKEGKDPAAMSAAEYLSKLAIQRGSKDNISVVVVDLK
D92H: 87.1%
R49P: 2.77%
S26W: 95.7%
S80L: 38.2%
L82T: 84.3%
G108P: 61.1%
L169I: 73.8%
R24F: 95.5%
F15Y: 96.2%
N61C: 95.4%
I105L: 81.9%
T106S: 97%
K54L: -7.33%
G107L: 77.2%
A30W: 101%
S80R: 78.9%
V78W: 27.2%
E109Q: 108%
R111E: 73.6%
E131A: 107%
N149G: 82%
Q19C: 98.6%
E67G: 92.8%
V161N: 45.7%
A35Q: 83%

Study 6
Target: CCND1, cyclin fold, Cln2 fusion (human)
Method: yeast growth competition, sequencing
Sample: yeast
Setting: strong parent motif
Baseline: not given
Reading: higher = stronger binding
Measurement: normalised enrichment score
Starting sequence: INSM1 docking peptide (human); PKAIRKLHFEDEV; partner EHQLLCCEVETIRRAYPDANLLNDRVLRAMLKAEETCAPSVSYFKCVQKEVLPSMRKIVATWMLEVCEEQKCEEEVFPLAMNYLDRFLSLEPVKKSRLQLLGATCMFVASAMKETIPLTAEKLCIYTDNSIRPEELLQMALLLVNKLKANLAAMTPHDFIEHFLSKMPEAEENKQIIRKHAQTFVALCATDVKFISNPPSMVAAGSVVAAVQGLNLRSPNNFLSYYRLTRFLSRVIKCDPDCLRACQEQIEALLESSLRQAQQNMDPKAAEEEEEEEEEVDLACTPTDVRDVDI
PKAIRKLHPEDEV [F9P]: 0.0828
PTAIRKLHFEDEV [K2T]: 4.99
PKAIRSLHFEDEV [K6S]: 1.91
PKAINKLHFEDEV [R5N]: 0.252
PKAQRKLHFEDEV [I4Q]: 4.02
PKAIRKLHFEDWV [E12W]: 3.68
PKAIRKLHSEDEV [F9S]: 0.172
PKAIRKLKFEDEV [H8K]: 4.72
PKAIRKHHFEDEV [L7H]: -0.0941
PKAIRKLHVEDEV [F9V]: 0.0931
PKAIEKLHFEDEV [R5E]: 0.658
PKAIRKLHFEDAV [E12A]: 4.23
PHAIRKLHFEDEV [K2H]: 3.7
PKAIRKLHCEDEV [F9C]: 0.142
PKAPRKLHFEDEV [I4P]: 0.51
PKAIRKLHFEVEV [D11V]: 3.01
PKAIRKIHFEDEV [L7I]: 2.86
PKAIRKLHFEDKV [E12K]: 3.31

Some of these lines once more (study 3):
H71F: -1.52 kcal/mol
V46L: 0.71 kcal/mol
G63E: 0.341 kcal/mol
V99A: -0.182 kcal/mol
G4V: 0.0431 kcal/mol
M48D: -0.24 kcal/mol
V17D: 0.291 kcal/mol
R49C: 0.366 kcal/mol
H71D: -0.38 kcal/mol
L27M: 0.762 kcal/mol
Q104T: -0.111 kcal/mol
A110G: -0.0587 kcal/mol
